Measured values gathered from unrelated publications.
A part holds a random share of what one study measured. Changes are numbered by the printed parent chain.

Sample 1 — method: RNAcompete; molecule type: RNA; sample: in vitro; tested at: 20 nM; setting: 7-mer, probes averaged, single round; relative to: mean of 7-mers; reading: higher = stronger binding
Target: PABPC1L2, full length, GST fusion (mouse, UniProt A0ABA7IW68)
Construct (chain): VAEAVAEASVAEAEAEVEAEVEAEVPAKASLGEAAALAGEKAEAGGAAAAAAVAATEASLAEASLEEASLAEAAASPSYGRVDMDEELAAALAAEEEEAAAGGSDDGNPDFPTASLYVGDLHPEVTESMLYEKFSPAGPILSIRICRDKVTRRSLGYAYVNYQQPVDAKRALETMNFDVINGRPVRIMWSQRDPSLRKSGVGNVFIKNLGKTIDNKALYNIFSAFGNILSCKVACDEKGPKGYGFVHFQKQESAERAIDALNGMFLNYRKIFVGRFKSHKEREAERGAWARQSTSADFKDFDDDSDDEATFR
Strand | 7-mer Z-score
GGGGUCA | 0.441
UUCGGCG | -0.331
AAGAAGC | 0.546
AAGCGUU | -0.0971
GUACGAA | -0.0609
GGCGCUG | 0.0189
AUUUAUC | 0.166
GUUAUGG | -0.0826

Sample 2 — target: CCNB1, cyclin fold, Cln2 fusion (human); method: yeast growth competition, sequencing; sample: yeast; setting: weak parent motif; relative to: not given; reading: higher = stronger binding; starting sequence: viral docking peptide; PTARRRLLHDLDT
Change | normalised enrichment score
L7A | 0.146
R5K L8F | 0.72
R5A R6A L7A L8A | 0.0632
R5A | 0.0735
L8F | 0.55
P1A | 0.575
R5K | 0.0738
L11A | 0.358
T2A | 0.698
R4A | -0.0595

Sample 3 — observed: binding; method: phage display NGS; molecule type: peptide; tested at: concentration not given; setting: panning round 4; relative to: input library
Target: UDP-N-acetylglucosamine--peptide N-acetylglucosaminyltransferase 110 kDa subunit (OGT, Homo sapiens, UniProt O15294)
UniProt O15294, sequence (whole entry, looked up): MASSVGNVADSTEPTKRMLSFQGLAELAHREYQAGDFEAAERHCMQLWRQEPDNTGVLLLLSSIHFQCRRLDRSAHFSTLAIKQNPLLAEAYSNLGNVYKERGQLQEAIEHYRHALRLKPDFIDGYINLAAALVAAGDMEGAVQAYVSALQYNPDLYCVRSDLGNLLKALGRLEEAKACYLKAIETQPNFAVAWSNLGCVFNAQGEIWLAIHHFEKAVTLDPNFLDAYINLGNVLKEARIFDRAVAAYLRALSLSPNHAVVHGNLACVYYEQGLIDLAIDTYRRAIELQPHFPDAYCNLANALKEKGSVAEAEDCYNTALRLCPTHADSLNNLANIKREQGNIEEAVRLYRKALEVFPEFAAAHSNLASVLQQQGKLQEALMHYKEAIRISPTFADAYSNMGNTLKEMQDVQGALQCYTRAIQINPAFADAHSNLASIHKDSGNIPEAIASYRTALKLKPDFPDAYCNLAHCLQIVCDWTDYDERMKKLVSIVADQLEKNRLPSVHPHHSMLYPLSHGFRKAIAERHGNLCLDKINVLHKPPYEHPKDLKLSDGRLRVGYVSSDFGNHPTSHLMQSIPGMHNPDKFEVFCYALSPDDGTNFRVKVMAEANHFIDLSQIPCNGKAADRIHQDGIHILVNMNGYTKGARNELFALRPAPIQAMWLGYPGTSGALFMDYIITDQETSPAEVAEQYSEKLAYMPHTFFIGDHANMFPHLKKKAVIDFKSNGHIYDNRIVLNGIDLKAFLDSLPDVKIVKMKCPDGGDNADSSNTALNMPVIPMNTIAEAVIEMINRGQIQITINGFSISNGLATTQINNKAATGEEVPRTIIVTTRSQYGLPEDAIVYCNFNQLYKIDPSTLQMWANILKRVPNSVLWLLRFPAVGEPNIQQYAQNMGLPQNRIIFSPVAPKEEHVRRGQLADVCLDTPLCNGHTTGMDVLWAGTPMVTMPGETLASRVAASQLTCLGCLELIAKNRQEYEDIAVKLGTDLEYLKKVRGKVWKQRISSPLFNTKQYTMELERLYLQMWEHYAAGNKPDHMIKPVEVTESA
Sequence | enrichment fold change
VQSKLMPAYQIQYKM | 1.83
GSLFAPKYQMSYEVV | 1.61
DYTRYDPKYQIRYFR | 2.77
KMESYQPAYQINYTH | 2
NQYQPQYQILYDANR | 2

Sample 4 — target: vanadate, free oxyanion; method: microfluidic competitive inhibition; sample: in vitro, cell-free expressed; tested at: not given; reading: lower = stronger binding
Setting: derived from inhibition constants, unchanged parent 676 nM
Starting sequence: PafA, mature enzyme, eGFP fusion (Elizabethkingia meningoseptica, UniProt Q9KJX5); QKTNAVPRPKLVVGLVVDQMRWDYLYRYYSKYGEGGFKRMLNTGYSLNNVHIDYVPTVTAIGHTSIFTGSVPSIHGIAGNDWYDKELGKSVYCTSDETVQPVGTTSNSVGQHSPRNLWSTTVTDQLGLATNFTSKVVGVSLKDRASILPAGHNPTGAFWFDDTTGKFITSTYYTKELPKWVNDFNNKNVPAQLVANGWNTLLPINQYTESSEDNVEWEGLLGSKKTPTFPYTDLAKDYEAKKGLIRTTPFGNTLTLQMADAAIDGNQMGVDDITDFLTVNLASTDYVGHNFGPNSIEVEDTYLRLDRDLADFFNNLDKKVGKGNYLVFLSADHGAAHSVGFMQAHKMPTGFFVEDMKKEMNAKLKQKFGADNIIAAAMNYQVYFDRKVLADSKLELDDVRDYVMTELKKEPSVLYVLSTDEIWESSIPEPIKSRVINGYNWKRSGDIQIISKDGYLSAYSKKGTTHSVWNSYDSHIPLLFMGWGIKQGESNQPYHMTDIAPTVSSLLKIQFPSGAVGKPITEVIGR
Change | oxyanion analog dissociation constant [nM]
G463A | 627
N290G | 500
A370G | 689
A377G | 511
G484A | 604
N42G | 570
I509G | 726
